Published values pooled from the literature.
Matrix: plasma

SMILES | host | route | dose | notes | AUC(0-t)
C[N+]1(CC(=O)OC2CCCCCCCCCCC2)CCCCC1 | mouse | intraperitoneal | 5 mg/kg | single dose | 1870 ng·h/mL
COc1cc(N2CCN(C(=O)C3CCCN3)CC2)ccc1Nc1ncc(Cl)c(Nc2ccccc2P(C)(C)=O)n1 (stereo not drawn) | mouse | oral | 10 mg/kg |  | 4900 ng·h/mL
N#Cc1cnc2cc(OCC3CCNCC3)c(F)cc2c1Nc1cc(F)c(OCc2cccc(Cl)n2)cc1Cl | female CD-1 mouse | intravenous | 5 mg/kg |  | 2580 ng·h/mL
CN1/C(=C/C=C/c2cc(-c3ccccc3)cc(-c3ccccc3)[o+]2)C(C)(C)c2ccccc21 | male CD-1 mouse | intravenous | 1 mg/kg | single dose | 26.9 ng·h/mL
COC(=O)c1ccc2c(c1)NC(=O)/C2=C(\Nc1ccc2c(c1)CCN2C(=O)CN1CCOCC1)c1ccccc1 | CD-1 mouse | intravenous | 10 mg/kg |  | 6640 ng·h/mL
CCC(=C(c1ccc(Cl)cc1)c1ccc(OCCN2CCOCC2)cc1)c1ccc(OC)cc1 | female C57BL/6 mouse | oral | 400 mg/kg | single dose | 47800 ng·h/mL
CN1CC[C@H](c2c(O)cc(O)c3c(=O)cc(/C=C/c4c(Cl)cccc4Cl)oc23)[C@H](O)C1 | male BALB/c mouse | oral | 50 mg/kg |  | 3600 ng·h/mL
C[C@H]1CN(C(=O)c2cn(-c3ccnc(N)n3)c3cc(C#CC4(O)CCCCC4)ccc23)CCN1 | CD-1 mouse | intravenous | 1 mg/kg |  | 264 ng·h/mL
C=CC(=O)Nc1cccc(Cn2ncc3cnc(Nc4cnn(CCOC)c4)nc32)c1 | male BALB/c mouse | oral | 30 mg/kg |  | 801 ng·h/mL
COc1cccc2c1C(=O)c1c(O)c3c(c(O)c1C2=O)CC(O)(C(=O)CO)CC3OC1CC(NC(=O)C[C@H](N)C(=O)O)C(O)C(C)O1 (stereo partly drawn) | mouse | intravenous | 5 mg/kg |  | 21600 ng·h/mL
CC(C)Cn1c(SCC(=O)N2CCc3ccccc3C2)nc2cc(Cl)ccc2c1=O | male C57BL/6 mouse | intraperitoneal | 10 mg/kg |  | 5.8 µM·h
Cc1ccc2oc(-c3c4c(N)n[nH]c(=O)c4nn3-c3ccc(NC(=O)/C=C/CN(C)C)cc3)c(C)c2c1 | mouse | intraperitoneal | 3 mg/kg |  | 699 ng·h/mL

A few entries again:
SMILES | host | route | dose | notes | AUC(0-t)
CC(C)Cn1c(SCC(=O)N2CCc3ccccc3C2)nc2cc(Cl)ccc2c1=O | male C57BL/6 mouse | intraperitoneal | 10 mg/kg |  | 5.8 µM·h
